Values quoted from earlier work that unrelated publications cite.
Compare with care: the assays were run in different laboratories. ± gives the spread as reported. Values after ≈ are worked out from the molar mass of the structure shown.

| Compound | test | system | conditions | scale | measurement | result |
| --- | --- | --- | --- | --- | --- | --- |
| NC(=O)c1ncn([C@@H]2O[C@H](CO)[C@@H](O)[C@H]2O)n1 | – | human | – | – | oral bioavailability | 64% |
| Cc1cc(C)c(CNC(=O)c2cc(Cl)c3c(c2C)O[C@@](C)([C@H]2CC[C@H](N(C)C)CC2)O3)c(=O)[nH]1 | – | relapsed/refractory ATLL patients | 200 mg/day, without fluconazole | – | grade ≥3 TEAE incidence | 58.3% |
| Cc1cc(C)cc(OCC2CNC(=O)O2)c1 (stereo not shown) | – | water | – | – | solubility | < 1000 µg/mL |
| CC1(C)C[C@@H]1C(=O)N/C(=C\CCCCSC[C@H](N)C(=O)O)C(=O)O | – | human | – | – | Vd | 0.19 L/kg |
| CNC(=O)c1ccc(N2C(=S)N(c3ccc(C#N)c(C(F)(F)F)c3)C(=O)C2(C)C)cc1F | item: diarrhea | post-docetaxel patients | dose not given, AFFIRM trial | – | adverse event incidence | 21% |
| CS(=O)(=O)c1ncn2c(NCc3c(F)ccc4c3CCO4)ncc(-c3ccc(C4CC4)nc3)c12 | – | mouse | oral, 10 mg/kg | – | AUC | 6000 ng·h/mL |
| CN(C)CCC[C@@]1(c2ccc(F)cc2)OCc2cc(C#N)ccc21 | – | human adolescents aged 15 years | – | – | CL/F | 20.8 L/h |
| CC(=O)O[C@H]1C(=O)[C@@]2(C)[C@H]([C@H](OC(=O)c3ccccc3)[C@]3(O)C[C@H](OC(=O)[C@H](O)[C@@H](NC(=O)c4ccccc4)c4ccccc4)C(C)=C1C3(C)C)[C@]1(OC(C)=O)CO[C@@H]1C[C@@H]2O | – | pretreated metastatic breast cancer patients | 80 mg/m2 weekly, monotherapy | – | grade 4 peripheral neuropathy incidence | 0% |
| C#C[C@]1(O)CC[C@H]2[C@@H]3CCC4=CC(=NO)CC[C@@H]4[C@H]3CC[C@@]21CC (mixture of isomers) | – | human, fasted | 0.25 mg norgestimate, single dose, reference formulation | – | Cmax, mean | 1.98 ng/mL |
| Nc1ccn([C@H]2CO[C@@H](CO)S2)c(=O)n1 | – | human | 400 mg | – | oral bioavailability | 65 to 80% |
| Cc1nc(NC(=O)N2CCC[C@H]2C(N)=O)sc1-c1ccnc(C(C)(C)C(F)(F)F)c1 | – | human | oral, 300 mg single dose, with: meal, low fat, low calorie | reference: fasted | increase in AUC | 77% |
| Cn1c(Cn2ccc(C(F)(F)F)c(Oc3cc(Cl)cc(C#N)c3)c2=O)n[nH]c1=O | – | human | dose not given, moderate induction, with: efavirenz | – | Cmin reduction | 70 to 85% |
| FC(F)(F)c1ccc(CNc2ccc(Cc3c[nH]c4ncc(Cl)cc34)cn2)cn1 | – | human, plasma | 1000 mg/day, day 1, observed mean | – | AUC(0-6 h) | 6280 ng·h/mL |
| Nc1nc(=O)n([C@@H]2C=C[C@H](CO)O2)cc1F | – | human | 5 mg | – | oral bioavailability | 32% |
| CN1CCC(=C2c3ccccc3CC(=O)c3sccc32)CC1 | – | supercritical CO2 | – | – | crossover pressure | 180 to 200 bar |
| CCCCN(CCCC)CCC(O)c1cc2c(Cl)cc(Cl)cc2c2cc(C(F)(F)F)ccc12 (stereo not shown) | – | human | – | – | free Cmax | 172 nM |
| C[C@@H](Oc1cc(-c2cnn(C3CCNCC3)c2)cnc1N)c1c(Cl)ccc(F)c1Cl | – | human | concentration not given, clinical | – | diarrhoea incidence | 49% |
| C[C@H](C(=O)NCc1ccccc1)N1C(=O)CCC1=O | – | CD-1 mice, MES-induced seizures | intraperitoneal | – | protective index | > 7.5 |
| CC(=O)N1CCN(c2ccc(OCC3COC(Cn4ccnc4)(c4ccc(Cl)cc4Cl)O3)cc2)CC1 (stereo not shown) | – | plasma | concentration not given, total, steady state | – | Cmax | 3200 nM |
| CN[C@@H](C)C(=O)N[C@H]1CN(S(=O)(=O)c2cccc(S(=O)(=O)N3CC[C@H]4CC[C@@H](C(=O)NC(c5ccccc5)c5ccccc5)N4C(=O)[C@@H](NC(=O)[C@H](C)NC)C3)c2)CC[C@H]2CC[C@@H](C(=O)NC(c3ccccc3)c3ccccc3)N2C1=O | – | cynomolgus monkey, plasma | dose not given | – | clearance | 11.3 mL/min/kg |

| Compound | test | system | conditions | scale | measurement | result |
| --- | --- | --- | --- | --- | --- | --- |
| COc1ccc(NS(=O)(=O)c2ccc(N)cc2)nn1 | – | water | – | – | solubility | < 1000 µg/mL |
| Cc1cn([C@H]2C=C[C@@H](CO)O2)c(=O)[nH]c1=O | – | human | – | – | oral bioavailability | 100% |
| CC1=NN(c2ccccc2)C(=O)C1 | – | water | – | – | solubility | < 1000 µg/mL |
| CN(C)C(=O)c1cc2cnc(Nc3ccc(N4CCNCC4)cn3)nc2n1C1CCCC1 | – | human | 400 mg single dose, with: ritonavir 100 mg twice daily for 14 days | reference: compound alone | increase in Cmax | 1.7 fold |
| CC(C)(C)NCC(O)c1cc(O)cc(O)c1 (stereo not shown) | – | human | – | – | systemic clearance | 3.67 mL/min/kg |
| Nc1cccc2c1C(=O)N(C1CCC(=O)NC1=O)C2=O (stereo not shown) | – | water | – | – | solubility | < 1000 µg/mL |
| COCCc1ccc(OCC(O)CNC(C)C)cc1 (stereo not shown) | – | human, fasted | 200 mg, single dose | – | Cmax, mean | 105 ng/mL |
| CC(C)(C)c1cc(C(C)(C)C)c(NC(=O)c2c[nH]c3ccccc3c2=O)cc1O | – | – | – | – | logP octanol/water | 5.68 |
| CC(C)Nc1nc2cc(Cl)c(Cl)cc2n1[C@H]1O[C@@H](CO)[C@H](O)[C@@H]1O | – | human | dose not given, clinical, with: ketoconazole | – | CL/F reduction | 35% |
| CC(C(=O)O)c1ccc(-c2ccccc2)c(F)c1 (stereo not shown) | – | water | – | – | solubility | < 1000 µg/mL |
| O=C1Cc2cc(CCN3CCN(c4nsc5ccccc45)CC3)c(Cl)cc2N1 | – | human | – | – | free Cmax | 0.38 nM |
| C=CC(=O)NC1CCN(c2ncc3ncnc(Nc4ccc(Oc5ccc6c(c5)ncn6C)c(C)c4)c3n2)CC1 | – | patients, NSCLC, HER2-mutant, previously treated | 120 mg once daily, treatment-related any grade | – | diarrhoea incidence | 56% |
| C=CC(=O)N(C)CCOc1c(N)ncnc1-c1cc(F)cc(NC(=O)c2ccc(C3CC3)cc2F)c1C | – | human | 400 mg once daily | – | AUC(0-last) | 977 ng·h/mL |
| CCCCNC(=O)NS(=O)(=O)c1ccc(C)cc1 | – | liver microsomes 0.5 mg/mL | 1 µM | – | CLint, scaled | 2.03 mL/min/kg |
| CCCCC[C@H](O)CC[C@@H]1[C@H]2Cc3cccc(OCC(=O)O)c3C[C@H]2C[C@H]1O | – | non-Japanese healthy adults | 18 µg | – | AUC(0-inf) | 0.26 ± 0.08 ng·h/mL |
| COc1cc(Nc2c(C#N)cnc3cc(OCCCN4CCN(C)CC4)c(OC)cc23)c(Cl)cc1Cl | – | FaSSIF | literature value | – | solubility | 13.2 µg/mL (≈ 0.0248 mM) |
| NC(=O)OCC(COC(N)=O)c1ccccc1 | – | water | – | – | solubility | < 1000 µg/mL |
| CCN1CCN(Cc2ccc(Nc3ncc(F)c(-c4cc(F)c5nc(C)n(C(C)C)c5c4)n3)nc2)CC1 | – | human | dose not given, potency-adjusted incl active metabolites, with: rifampin co-administration | – | unbound AUC decrease | 77% |
| O=C(O)Cc1ccccc1Nc1c(Cl)cccc1Cl | – | plasma | – | – | free Cmax | 35.8 nM |
| C[Si](C)(C)O[Si](C)(C)O[Si](C)(C)O[Si](C)(C)C | slow-stirring method | 1-octanol/water | 25 °C | – | log KOW | 8.13 |

| Compound | test | system | conditions | scale | measurement | result |
| --- | --- | --- | --- | --- | --- | --- |
| COc1cccc2c1C(=O)c1c(O)c3c(c(O)c1C2=O)C[C@@](O)(C(=O)CO)C[C@@H]3O[C@H]1C[C@H](N)[C@H](O)[C@H](C)O1 | – | human | – | – | free Cmax | 419 nM |
| O=C(c1cc(Cc2n[nH]c(=O)c3ccccc23)ccc1F)N1CCN(C(=O)C2CC2)CC1 | – | female | 80 mg/kg | – | AUC(0-inf) | 12600 ng·h/mL |
| Cc1ccc(-c2cc(C(F)(F)F)nn2-c2ccc(S(N)(=O)=O)cc2)cc1 | – | rat, plasma | oral, 100 mg/kg single dose | – | Tmax | 3.2 h |
| CNCc1cc(-c2ccccc2F)n(S(=O)(=O)c2cccnc2)c1 | – | human | 20 mg maintenance dose | – | observed Ctrough | 1.67 ng/mL |
| CC[C@H](C)[C@H](NC(=O)[C@H](Cc1ccccc1)NC(=O)[C@H](CCC(=O)O)NC(=O)[C@H](CCCCNC(=O)COCCOCCNC(=O)COCCOCCNC(=O)CC[C@H](NC(=O)CCCCCCCCCCCCCCCCC(=O)O)C(=O)O)NC(=O)[C@H](C)NC(=O)[C@H](C)NC(=O)[C@H](CCC(N)=O)NC(=O)CNC(=O)[C@H](CCC(=O)O)NC(=O)[C@H](CC(C)C)NC(=O)[C@H](Cc1ccc(O)cc1)NC(=O)[C@H](CO)NC(=O)[C@H](CO)NC(=O)[C@@H](NC(=O)[C@H](CC(=O)O)NC(=O)[C@H](CO)NC(=O)[C@@H](NC(=O)[C@H](Cc1ccccc1)NC(=O)[C@@H](NC(=O)CNC(=O)[C@H](CCC(=O)O)NC(=O)C(C)(C)NC(=O)[C@@H](N)Cc1cnc[nH]1)[C@@H](C)O)[C@@H](C)O)C(C)C)C(=O)N[C@@H](C)C(=O)N[C@@H](Cc1c[nH]c2ccccc12)C(=O)N[C@@H](CC(C)C)C(=O)N[C@H](C(=O)N[C@@H](CCCNC(=N)N)C(=O)NCC(=O)N[C@@H](CCCNC(=N)N)C(=O)NCC(=O)O)C(C)C | – | human reference subject | dose not given, body weight 85 kg, population PK model | – | peripheral volume of distribution | 4.1 L |
| COc1cc2ncnc(Nc3ccc(F)c(Cl)c3)c2cc1OCCCN1CCOCC1 | – | human | concentration not given, with: with food | – | increase in drug exposure | 32% |
| Cc1ccc(NC(=O)c2ccc(CN3CCN(C)CC3)cc2)cc1Nc1nccc(-c2cncc(-c3oncc3C)c2)n1 | – | mouse | 100 mg/kg/day, steady state | – | half-life | 2.6 h |
| Cc1cc(-c2nccc3c2ccn3CC(=O)Nc2ccc(-c3cnccn3)cn2)ccn1 | – | dog | 30 mg/kg/day, 1 month, repeat dosing | – | AUC(0-24 h), total | 9.9 µM·h |
| Nc1ncn([C@H]2C[C@H](O)[C@@H](CO)O2)c(=O)n1 | – | human whole blood | one hour, cold bath conditions | – | whole blood stability | stable |
| Nc1nc(NC2CC2)c2ncn([C@H]3C=C[C@@H](CO)C3)c2n1 | – | monkey | dose not given | – | oral bioavailability | > 76% |
| Cl.O=C1Cc2cc(CCN3CCN(c4nsc5ccccc45)CC3)c(Cl)cc2N1 | – | FaSSIF | literature value | – | solubility | 4 µg/mL |
| CNC(=O)c1c(C)oc2cc(Oc3ncnc4cc(OC)c(OC)cc34)ccc12 | – | healthy human subjects | dose not given, with: high-fat meal | – | exposure change | no effect |
| O=C1C[C@@H](c2ccc(O)cc2)Oc2cc(O)cc(O)c21 | – | plasma | concentration not given, total, steady state | – | Cmax | 7390 nM |
| COc1ccc2nc([S@@+]([O-])Cc3ncc(C)c(OC)c3C)[nH]c2c1 | – | supercritical CO2 | – | – | crossover pressure | 200 to 220 bar |
| CN1C(N)=N[C@](C)(c2cc(NC(=O)c3ccc(F)cn3)ccc2F)CS1(=O)=O | – | plasma | – | – | free Cmax | 87 nM |
| Cc1ccc2c(c1)c1c(n2CCc2ccc(C)nc2)CCN(C)C1.Cl.Cl | – | water | – | – | solubility | < 1000 µg/mL |
| CC(C)C[C@H](NC(=O)[C@H](Cc1ccccc1)NC(=O)c1cnccn1)B(O)O | – | human | concentration not given, clinical | – | diarrhoea incidence | 51% |
| CC(C)C[C@H](NC(=O)[C@H](Cc1ccccc1)NC(=O)c1cnccn1)B(O)O | – | human patients | – | – | peripheral neuropathy incidence | 30 to 60% |
